# Published values of several laboratories.
# Each line is one published result; not all experiments were run side by side. ± gives the spread as reported.
# Chain of UniProt Q16539 (whole entry, looked up): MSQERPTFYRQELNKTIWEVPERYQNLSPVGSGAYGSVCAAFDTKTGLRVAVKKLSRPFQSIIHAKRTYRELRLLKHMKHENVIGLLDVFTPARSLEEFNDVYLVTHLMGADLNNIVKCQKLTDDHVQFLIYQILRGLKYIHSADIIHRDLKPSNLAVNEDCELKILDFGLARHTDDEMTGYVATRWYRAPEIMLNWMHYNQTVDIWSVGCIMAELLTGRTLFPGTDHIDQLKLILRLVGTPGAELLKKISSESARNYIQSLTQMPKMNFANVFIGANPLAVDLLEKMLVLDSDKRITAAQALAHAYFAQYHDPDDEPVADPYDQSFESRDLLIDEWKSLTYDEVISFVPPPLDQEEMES
# Chain of UniProt Q13557 (whole entry, looked up): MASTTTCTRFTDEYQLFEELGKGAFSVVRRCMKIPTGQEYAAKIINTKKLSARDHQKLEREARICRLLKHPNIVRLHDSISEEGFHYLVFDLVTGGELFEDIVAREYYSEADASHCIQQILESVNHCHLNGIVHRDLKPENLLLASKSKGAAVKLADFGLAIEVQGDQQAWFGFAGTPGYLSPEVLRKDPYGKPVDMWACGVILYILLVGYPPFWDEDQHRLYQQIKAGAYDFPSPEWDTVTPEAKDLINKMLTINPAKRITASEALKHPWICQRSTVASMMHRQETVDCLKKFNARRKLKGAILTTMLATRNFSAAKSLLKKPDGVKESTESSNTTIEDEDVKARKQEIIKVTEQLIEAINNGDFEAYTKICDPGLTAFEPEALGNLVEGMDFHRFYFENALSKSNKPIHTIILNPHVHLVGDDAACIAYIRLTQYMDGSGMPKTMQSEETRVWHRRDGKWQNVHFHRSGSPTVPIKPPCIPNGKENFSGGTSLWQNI
# Chain of UniProt P51451 (whole entry, looked up): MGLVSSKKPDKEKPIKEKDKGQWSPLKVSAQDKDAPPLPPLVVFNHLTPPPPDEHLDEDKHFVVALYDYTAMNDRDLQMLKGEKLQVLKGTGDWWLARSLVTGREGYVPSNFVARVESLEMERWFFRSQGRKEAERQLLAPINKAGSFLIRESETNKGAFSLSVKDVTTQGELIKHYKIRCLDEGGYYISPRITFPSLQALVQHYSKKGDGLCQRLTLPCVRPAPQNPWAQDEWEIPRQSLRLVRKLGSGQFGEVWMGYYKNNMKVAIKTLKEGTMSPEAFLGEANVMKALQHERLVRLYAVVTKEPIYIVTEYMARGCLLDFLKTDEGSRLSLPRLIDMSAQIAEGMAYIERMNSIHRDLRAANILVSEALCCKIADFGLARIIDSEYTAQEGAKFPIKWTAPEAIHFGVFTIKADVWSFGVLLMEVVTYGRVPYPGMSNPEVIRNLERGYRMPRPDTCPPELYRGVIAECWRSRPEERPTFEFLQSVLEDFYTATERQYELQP
SMILES,tested on,test,test system,conditions,measurement,value
CS(C)(=O)=Nc1ccc(-c2ccc(-c3nc4cc(O[C@@H]5CO[C@H]6[C@@H]5OC[C@H]6O)[nH]c4cc3F)cc2)cc1,"Tyrosine-protein kinase Blk (BLK, Homo sapiens, UniProt P51451)","enzyme activity, inhibitor",,10 µM,inhibition,9%
COc1ccc(NC(=O)N2CCCCN3[C@H](CN(C)C)[C@H](c4ccc(C#Cc5ccccc5)cc4)[C@@H]3C2)cc1,Toxoplasma gondii,bradyzoite growth,,glutamine-induced bradyzoites,EC50,0.078 µM
CCSC(SCC)c1ccc(OCCNS(=O)(=O)c2ccc(C)cc2)cc1,Tobacco mosaic virus,curative activity,plant in vivo,,EC50,998.5 ± 2.1 µg/mL
O=C(NCc1ccc(Cl)cn1)C(=O)C(Cc1ccccc1)NC(=O)C1CC(F)CN1C(=O)C(NC(=O)C1CCC(F)(F)CC1)C1CCCCC1 (stereo not drawn),HCoV-OC43,viral replication,,,EC50,0.31 µM
CN(C)[C@H]1C[C@@]23CC[C@@]4(O2)C(=CC[C@]2(C)[C@@H](c5ccc6ccncc6c5)CC[C@H]24)C=C3[C@@H](O)[C@@H]1O,"Mitogen-activated protein kinase 14 (MAPK14, Homo sapiens, UniProt Q16539)","ATP probe labelling, inhibitor, KiNativ profiling",,1 µM,inhibition,8.7%
CCC1(CC)CC(=O)N(C2c3cc(C(=O)NC4c5ccccc5CC4O)ccc3OC2(C)COC)C(=N)N1 (stereo not drawn),Plasmodium falciparum,parasite growth,Dd2,,EC50,0.0005 ± 0.0001 µM
COc1ccccc1-c1n[nH]c2nc(N[C@H]3CC[C@H](NS(=O)(=O)CC(C)C)CC3)ncc12,Leishmania donovani,,"promastigotes, LdBOB CRK3 overexpressing",,EC50,0.0013 ± 8e-06 µM
CCn1cnc2c(Oc3ccc(/C=C/C(=O)c4ccc(NS(=O)(=O)c5ccccc5C)cc4)cc3)ncnc21,tobacco mosaic virus,curative activity,in vivo plant,,EC50,471.5 ± 1.4 µg/mL
Cc1cc(C(=O)Nc2nc3cccc(C)c3n2[C@H]2CCCCN(C(=O)/C=C/CN(C)C)C2)ccn1,Trypanosoma brucei,propidium iodide flow cytometry,bloodstream form,"concentration not given, 8 h",cells in G2 phase,35.2%
CCSC(SCC)c1ccc(OCCNS(=O)(=O)c2ccc(C)cc2)c(OC)c1,Tobacco mosaic virus,curative activity,plant in vivo,,EC50,111 ± 4.3 µg/mL
CC(C)[C@H]1NC(=O)C[C@H]2/C=C/CCSSC[C@@H](NC1=O)C(=O)N[C@H](Cc1cccc3ccccc13)C(=O)NCC(=O)O2,"Calcium/calmodulin-dependent protein kinase type II subunit delta (CAMK2D, Homo sapiens, UniProt Q13557)","enzyme activity, inhibitor",,10 µM,inhibition,-0.9%
O=C1NC2(CC2)COc2ncc(F)cc2[C@H]2COCCN2c2ccn3ncc1c3n2,,,"Sprague-Dawley rat, male, serum","oral, 5 mg/kg/day, end of treatment, 4-week subacute toxicity",serum total bilirubin,0.9 ± 0.2 µmol/L
C[C@H](NC(=O)Cc1cc(F)cc(F)c1)C(=O)N[C@@H]1C(=O)N(C)c2ccccc2-c2ccccc21,dengue virus type 2,"viral replication, Renilla luciferase reporter virus",Huh-7.5.1 wild-type,48 h,EC50,0.05 µM
CC(C)(C)C(=O)OCOP(=O)(OCOC(=O)C(C)(C)C)C1CCCN(O)C1=O (stereo not drawn),OVCAR-5,,,,log LC50,> -4 log M
O=C(NNc1ccc(Cl)cc1)c1nnc(CC23CC4CC(CC(C4)C2)C3)o1,Fusarium oxysporum,microbial growth,,,EC50,3.4 µg/mL
COc1cc(C(SC(C)C)SC(C)C)ccc1OCCNS(=O)(=O)c1ccc(Br)cc1,Tobacco mosaic virus,protective activity,plant in vivo,,EC50,252 ± 2.6 µg/mL
C[C@H](NC(=O)[C@@H](O)c1cc(F)cc(F)c1)C(=O)N[C@@H]1C(=O)N(C)c2ccccc2-c2ccccc21,dengue virus type 2,"viral replication, Renilla luciferase reporter virus",Raji DC-SIGN,48 h,EC50,0.0025 µM
O=C(NNc1ccccc1)c1nnc(C23CC4CC(CC(C4)C2)C3)o1,Fusarium oxysporum,microbial growth,,,EC50,> 25 µg/mL

# For quick reference, copied from above:
SMILES,tested on,test,test system,conditions,measurement,value
COc1ccccc1-c1n[nH]c2nc(N[C@H]3CC[C@H](NS(=O)(=O)CC(C)C)CC3)ncc12,Leishmania donovani,,"promastigotes, LdBOB CRK3 overexpressing",,EC50,0.0013 ± 8e-06 µM
Cc1cc(C(=O)Nc2nc3cccc(C)c3n2[C@H]2CCCCN(C(=O)/C=C/CN(C)C)C2)ccn1,Trypanosoma brucei,propidium iodide flow cytometry,bloodstream form,"concentration not given, 8 h",cells in G2 phase,35.2%
